Assay results pooled from the literature.
Every numbered part comes from another study and shows a few of its results, in no order.

Block 1 — method: universal PBM; form: double-stranded DNA, one strand shown; medium: in vitro; tested at: not given; reading: higher = stronger binding
Target: Sal-like protein 4, full length isoform B (SALL4, Homo sapiens, UniProt Q9UJQ4-2, residues 1-616)
Setting: 8-mer, flanks averaged, mean of replicates
Oligonucleotide	E-score
ACGTCTTC	0.0481
GTCACCAC	-0.173
GTGTTTTA	0.188
ATCGCGCC	-0.15
GCCACTCA	-0.136
CCCACTAA	-0.0111
TCCCGTCA	-0.0761
TCCCGGAA	-0.178
GTACGTGA	0.123
CGGTATAA	0.155
TCACACGA	0.00387
GCTAATAC	0.11
AGCTCTAA	-0.0518
CTCCTCTA	-0.04
ACTGCCCT	-0.159
GAGTCCTA	-0.0934
ATGGAGGG	-0.0201
ACTAAACT	0.0792
GAGAGGAA	-0.0434
AGAACTGC	-0.0408
GTCCATGA	0.0154
CAGCAGTC	-0.186
CAGAAAGG	-0.158
AAGGGATG	-0.0311
CCAGGGCG	-0.399

Block 2 — method: competition protein-binding microarray; form: double-stranded DNA, one strand shown; medium: in vitro; tested at: 2 µM; added: Cbf1 competitor, 0.05 µM; reading: higher = stronger binding; constant ends, left off below: … GTCTTGATTCGCTTGACGCTGCTG
Target: Phosphate system positive regulatory protein PHO4, full length, GST-tagged (PHO4, Saccharomyces cerevisiae, UniProt P07270, residues 1-312)
Setting: whole 60-bp probe, lowest competitor level
Target sequence (chain): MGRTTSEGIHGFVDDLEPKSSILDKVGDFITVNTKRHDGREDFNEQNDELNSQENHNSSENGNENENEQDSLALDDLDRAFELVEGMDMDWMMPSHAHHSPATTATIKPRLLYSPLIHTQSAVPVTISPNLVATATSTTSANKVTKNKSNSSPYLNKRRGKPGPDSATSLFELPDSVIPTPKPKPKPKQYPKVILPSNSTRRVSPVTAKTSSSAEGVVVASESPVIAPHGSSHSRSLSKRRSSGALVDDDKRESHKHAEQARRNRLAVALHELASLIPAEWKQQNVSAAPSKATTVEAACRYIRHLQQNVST
Oligonucleotide	fluorescence intensity [a.u.]
ATATGTGTGCGACGACACATGATAATATGGCATGCA	9300
CTAACGAAGGTTTGTCACGTAACTTACAAGCCAAGT	4400
GTCTTGTCTCATTTTCACGTGGGGTTCCCCACTTCA	14500
CAGCTCGCCATCCTCCACGTTTTGGTAAGCTGCCGG	12300
CGGGGTTAAGTTTGTCACCGAACTTGCTTGCAGCAG	3150
GTACACACAAGGCGTCACATGAATTCTTGCCAAGTT	5220
AAGCAAGAACGAAAGCACGTTCTTGAAGATCTGCAT	18000
TGCGCAACAACTTGGCGTGTGGGTGTATGTCTAGAA	6620
AGCGATTGTAGCCAAATCGTGGGTACTGACTCTTGT	6500
GTCTTGTCTCATTGCGCGGTGGGTGTCCCCACTTCA	4800
TGCGCAACAACTTGAACGGTGGGTGTATGTCTAGAA	4270
CTTTCCCGATCTTGTCACCAGACTTTAGCACATTTG	4010
TGCGCAACAACTTGGTCGGTGGGTGTATGTCTAGAA	4400
ACCTCGGCTGCGCCTTCCGTGATGGCCATCACTGTC	3860
TGGAAATAACACTTCCACGTGGAACTATTAAATTGG	15100
CGGGTGAGGGGTTTGCACGTGACTCGGGTGCGGGTA	14700
CTAACGAAGGTTTGATCTGTGGGTGACAAGCCAAGT	3470
AAGAAAAAATTCACAAGCGTGTCCTTTAGTGCAGCT	5970
CTATCCCTAGATTTCGTCGTGCCGAGACCCAAATAG	5700
TCAAAAAAGAAACTACACGTGCTTTTAATATACCGA	16300
TCGTCATTGTGGATACACGTGAGATTAATGCCTCAT	14700

Block 3 — method: RNA Bind-n-Seq; form: RNA; medium: in vitro; tested at: not given; relative to: input RNA pool; reading: higher = stronger binding
Target: RING finger protein unkempt homolog, zinc fingers 1-6, GST-SBP tag (UNK, Homo sapiens, UniProt Q9C0B0, residues 30-357)
Sequence of UniProt Q9C0B0 (30-357, looked up): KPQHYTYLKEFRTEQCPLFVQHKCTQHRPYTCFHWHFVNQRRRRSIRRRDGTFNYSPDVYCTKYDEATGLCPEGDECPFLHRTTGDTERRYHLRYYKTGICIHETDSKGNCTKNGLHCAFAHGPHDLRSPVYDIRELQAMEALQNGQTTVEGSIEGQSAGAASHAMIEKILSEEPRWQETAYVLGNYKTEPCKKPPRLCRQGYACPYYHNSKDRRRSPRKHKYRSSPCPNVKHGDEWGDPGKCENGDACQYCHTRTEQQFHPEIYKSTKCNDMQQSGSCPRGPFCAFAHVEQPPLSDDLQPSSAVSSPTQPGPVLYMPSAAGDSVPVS
Setting: RNA with constant flanks, human and mouse sites, ends assumed
Constant ends, left off below: GGGAGUUCUACAGUCCGACGAUC … CAACAGAGGAUUGAGCAUCA
Oligonucleotide	bound/input enrichment [ratio]
GCUGCUCAGAUAAACGGUAAAACAGAAUCUAGUUCUGUGGUUCGAACCAGAAGCAACCGAGUGGUUGUAGAUCCAGUUGUCACUGAGCAACCAUCUACUUCUUCAGCUGCAAAGACUUUU	0.132
CGGCUAAAGAUUGACUUUGGGGAAGCUGCCAGGGCAGAUGAUGCCCGGCAAUUAUUUGUUUUAGCUGGCAGUGCUGAAGAAGGAGUCAUGACUCCAGAACUAGCAGGAGUGAUUAAACGG	0.389
AAAGAUAAAUUCGCAAAGGCCAAAGAAUUUGGAGCCUCUGAAUGUAUUAGCCCCCAAGACUUCAGUAAAUCCAUCCAGGAAGUCCUCGUUGAGAUGACAGAUGGGGGCGUGGAUUACUCC	0.185
CGCCUGAUGGAAAGCCACGGCUUUGAGGAGUACAUGAAAGAGCUAGGAGUAGGACUGGCUCUUAGGAAGAUGGCUGCCAUGGCCAAGCCAGACUGUAUCAUUACGUGUGAUGGCAACAAC	0.208
UCUGAUGGGGACCAUCAGGUUCCAACUACUGCAGGAAACAAAGCAGCUCUUUUAGAUCAAAUUAGAGAGGGUGCUCAGCUAAAAAAAGUGGAGCAGAACAGUCGGCCAGUGUCCUGCUCU	1.92
AGAUGCCGGGCUAAACCCCCUGGAAGGGCCUGCAGCAAUCCCUCCUUCCUUCGGUUUCAACUGGACUUCUAUCAGGUCUACUUCCUGGCCCUGGCAGCUGAUUGGCUUCAGGCCCCCUAC	0.113
UCUGAUGACUUUAAUUUUAAAAUCUUGUGACAUUUUGCUUAUACUAAAAGUUAUCUAUCUUUAGUUGAAUAUUUUCUUUUGGAGAGAUUGUAUAUUUUAAAAUACUGUUUAGAGUUUAUG	2.34
UAAGUUAUUUUGUACAGCUUUGUAAAUUCUUAACAUUUUUAUAUUGCCAUGUUUAUUUUGUUUGGGUAAUUUGGUUCAUUAAGUACAUAGCUAAGGUAAUGAACAUCUUUUUCAGUAAUU	0.822
GAGAGAAACCUUACAAAUGUAGUGAGUGUGGCAAAUGCUUCACUAGUGGCUCAUAUCUUAGAAUGCACCAAAGAAUUCAUACAGGAGACAAACCUUACAAAUGUAGUGACUGUGAUAAAU	0.694
GUGCCGCUGAAGGAGAAGAAGCUCAUGGAAGUCAAACUUGGAGAGCUGCCGAGCUGGAUAAUGAUGCGGGAUUUCACCCCCAGUGGCAUUGCCGGAGCCUUUCGGAGAGGGUAUGACCGG	0.111
CAAUUUGAAGCUCCUUCUCCAUCACACAGUAGCAUUAUUGAUUCUACAGAAUACAGCCAACCUCCAGGUUUCAGUGGGACCUCUCAGACAAAGAAACAGCCUUGGUAUAACAGCACAUUA	0.792

Block 4 — method: RNAcompete; form: RNA; medium: in vitro; tested at: 20 nM; setting: 7-mer, probes averaged, single round; relative to: mean of 7-mers; reading: higher = stronger binding
Target: PABPC1L2, full length, GST fusion (mouse, UniProt A0ABA7IW68)
Construct (chain): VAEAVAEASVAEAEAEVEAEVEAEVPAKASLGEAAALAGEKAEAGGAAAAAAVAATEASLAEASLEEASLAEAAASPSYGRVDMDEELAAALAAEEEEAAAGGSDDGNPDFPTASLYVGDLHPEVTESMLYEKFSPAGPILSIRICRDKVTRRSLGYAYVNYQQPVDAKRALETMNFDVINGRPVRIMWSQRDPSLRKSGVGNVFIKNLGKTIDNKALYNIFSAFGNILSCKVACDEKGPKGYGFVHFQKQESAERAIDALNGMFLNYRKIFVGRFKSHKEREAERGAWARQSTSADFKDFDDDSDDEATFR
Oligonucleotide	7-mer Z-score
GAGAGAU	-0.0355
UAAUGUG	0.000733
UUUACUC	-0.3
UCUAUAU	-0.182
UGAACAU	-0.0283
CCUCGUG	-0.309
UUGCGAU	-0.264
AAAACCA	3.49
GCUUGAC	-0.224
GAGAUCA	-0.18
UGAUAGC	-0.229
AUCGAUC	-0.0935
AUCUCGU	-0.354
AUAUACA	0.146
CACUUCC	-0.318
CAACCAA	0.459
GAACACC	-0.166
GCAGGUC	-0.0536
AUGCGAC	0.037
GGUAUAC	-0.00652
AUUGACG	-0.0283
CGGCAGG	0.171
GAUGGGA	0.0569
AAGCUUA	-0.175
CUUGCAA	-0.235

Block 5 — method: protein binding microarray; form: double-stranded DNA, one strand shown; medium: in vitro; tested at: not given; relative to: not given; reading: higher = stronger binding
Target: Histone acetyltransferase KAT6A, winged helix 1, GST fusion (KAT6A, Homo sapiens, UniProt Q92794, residues 1-85)
Setting: 8-mer, flanks averaged, mean of 2 arrays, mostly near background
Residues (chain): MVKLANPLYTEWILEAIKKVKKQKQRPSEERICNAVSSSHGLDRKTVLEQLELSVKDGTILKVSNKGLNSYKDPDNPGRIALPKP
Oligonucleotide	E-score
CCGGCTTA	0.196
AGCCCACC	0.0619
ACGGAGAT	0.057
AAAGGGCC	0.0567
GAAGGCAA	-0.233
ACTCAGGG	-0.235
ACGCAACC	0.133
AAGTACTG	-0.11
AGGTGGAG	-0.242
ACGTGACC	-0.0636
GCCGGACC	0.257
CAAGGTAA	0.0288
AGCCACCA	-0.222
CTTAAAGA	-0.165
ATCCATCC	-0.194
AAGGGGCT	-0.124
ATGCAGTC	-0.221
ATTACGTA	-0.00494
TAATGCGA	0.142
AGTTTGCG	0.125
GAGGCCCA	0.0289
ATACCCTG	-0.115
CCTTGGAC	-0.0232

Excerpt of the above (block 1):
Oligonucleotide	E-score
CAGCAGTC	-0.186
ACGTCTTC	0.0481
AAGGGATG	-0.0311
CAGAAAGG	-0.158
GCCACTCA	-0.136
GCTAATAC	0.11
CCAGGGCG	-0.399
CTCCTCTA	-0.04
GAGTCCTA	-0.0934
CGGTATAA	0.155
CCCACTAA	-0.0111
TCCCGTCA	-0.0761
